Measured values pooled from the literature.
± gives the spread as reported.
GABA-A receptor; alpha-1/beta-3/gamma-2: GABA-A receptor; alpha-1/beta-3/gamma-2 (Homo sapiens, UniProt P14867+P18507+P28472)
UniProt P28472, sequence (whole entry, unmodified, looked up): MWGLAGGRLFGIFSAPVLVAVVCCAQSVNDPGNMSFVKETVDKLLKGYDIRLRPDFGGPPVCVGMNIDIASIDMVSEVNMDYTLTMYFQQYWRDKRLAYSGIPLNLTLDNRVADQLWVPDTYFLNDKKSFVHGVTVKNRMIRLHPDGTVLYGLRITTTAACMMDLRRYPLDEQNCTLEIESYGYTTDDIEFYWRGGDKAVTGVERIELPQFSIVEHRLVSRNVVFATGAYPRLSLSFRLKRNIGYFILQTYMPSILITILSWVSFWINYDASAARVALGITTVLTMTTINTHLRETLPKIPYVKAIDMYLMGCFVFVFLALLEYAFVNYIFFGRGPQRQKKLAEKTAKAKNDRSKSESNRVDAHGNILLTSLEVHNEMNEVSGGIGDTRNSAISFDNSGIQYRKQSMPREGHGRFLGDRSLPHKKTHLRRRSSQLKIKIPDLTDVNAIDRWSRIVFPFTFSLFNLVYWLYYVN
UniProt P14867, sequence (whole entry, unmodified, looked up): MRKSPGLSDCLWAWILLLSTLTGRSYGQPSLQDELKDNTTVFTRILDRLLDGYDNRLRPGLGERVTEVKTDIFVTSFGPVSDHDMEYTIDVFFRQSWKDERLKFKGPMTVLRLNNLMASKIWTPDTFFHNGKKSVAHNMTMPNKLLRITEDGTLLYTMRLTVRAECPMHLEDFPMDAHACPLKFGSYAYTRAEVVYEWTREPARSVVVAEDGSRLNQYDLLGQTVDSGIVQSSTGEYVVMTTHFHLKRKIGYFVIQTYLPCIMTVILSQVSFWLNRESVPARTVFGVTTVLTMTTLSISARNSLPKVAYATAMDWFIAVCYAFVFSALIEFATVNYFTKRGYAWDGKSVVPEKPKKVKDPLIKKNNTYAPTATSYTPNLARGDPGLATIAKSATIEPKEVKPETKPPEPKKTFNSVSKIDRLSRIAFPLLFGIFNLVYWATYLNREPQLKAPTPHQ
UniProt P18507, sequence (whole entry, looked up): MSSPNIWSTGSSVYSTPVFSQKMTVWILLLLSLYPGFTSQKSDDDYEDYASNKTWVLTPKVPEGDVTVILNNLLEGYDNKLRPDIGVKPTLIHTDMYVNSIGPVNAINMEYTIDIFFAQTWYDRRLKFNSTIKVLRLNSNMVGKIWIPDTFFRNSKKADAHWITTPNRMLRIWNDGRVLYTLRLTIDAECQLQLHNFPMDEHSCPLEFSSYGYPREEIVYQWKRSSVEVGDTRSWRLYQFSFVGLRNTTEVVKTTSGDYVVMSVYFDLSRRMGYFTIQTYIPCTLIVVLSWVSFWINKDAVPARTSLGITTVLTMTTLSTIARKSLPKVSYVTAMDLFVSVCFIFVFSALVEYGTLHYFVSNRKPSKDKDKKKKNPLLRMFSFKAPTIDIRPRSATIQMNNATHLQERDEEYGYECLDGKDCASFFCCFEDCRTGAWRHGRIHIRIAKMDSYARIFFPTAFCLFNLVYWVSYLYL
GABRA1/GABRB3 L291T with gamma-2 subunit: GABA-A receptor alpha-1/beta-3, with gamma-2 subunit (GABRA1/GABRB3, Homo sapiens, UniProt P14867+P28472, L291T)
HTR2A: 5-hydroxytryptamine receptor 2A (HTR2A, Homo sapiens, UniProt P28223)
UniProt P28223, sequence (whole entry, looked up): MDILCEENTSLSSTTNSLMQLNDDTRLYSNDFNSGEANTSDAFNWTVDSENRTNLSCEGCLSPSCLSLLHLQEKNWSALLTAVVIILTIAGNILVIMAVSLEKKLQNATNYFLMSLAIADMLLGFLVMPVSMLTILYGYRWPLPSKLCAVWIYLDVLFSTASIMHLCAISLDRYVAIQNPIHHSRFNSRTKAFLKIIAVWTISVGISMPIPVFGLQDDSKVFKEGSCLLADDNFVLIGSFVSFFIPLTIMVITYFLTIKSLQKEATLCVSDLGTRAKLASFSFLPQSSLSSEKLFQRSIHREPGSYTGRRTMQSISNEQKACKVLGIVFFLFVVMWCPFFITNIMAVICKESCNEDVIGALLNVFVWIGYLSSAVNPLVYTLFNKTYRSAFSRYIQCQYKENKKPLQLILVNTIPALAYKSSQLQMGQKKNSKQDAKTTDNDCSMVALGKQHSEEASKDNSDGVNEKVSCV
Sterol carrier protein 2: Sterol carrier protein 2 (Homo sapiens, UniProt P22307)
UniProt P22307, sequence (whole entry, looked up): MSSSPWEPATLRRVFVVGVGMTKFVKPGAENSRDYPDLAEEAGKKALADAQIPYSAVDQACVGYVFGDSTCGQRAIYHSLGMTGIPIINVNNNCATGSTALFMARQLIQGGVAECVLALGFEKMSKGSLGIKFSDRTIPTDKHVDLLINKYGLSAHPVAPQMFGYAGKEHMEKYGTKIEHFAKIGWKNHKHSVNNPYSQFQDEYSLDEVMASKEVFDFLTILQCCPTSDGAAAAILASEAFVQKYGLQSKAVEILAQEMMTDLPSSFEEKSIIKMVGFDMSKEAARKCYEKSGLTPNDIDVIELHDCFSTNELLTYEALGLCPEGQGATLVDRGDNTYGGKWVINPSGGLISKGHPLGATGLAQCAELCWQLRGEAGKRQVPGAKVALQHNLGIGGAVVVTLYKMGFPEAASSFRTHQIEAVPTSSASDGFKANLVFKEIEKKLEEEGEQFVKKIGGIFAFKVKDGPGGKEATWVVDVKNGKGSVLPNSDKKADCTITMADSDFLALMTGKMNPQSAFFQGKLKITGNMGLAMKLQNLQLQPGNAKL
UniProt Q07812, sequence (whole entry, looked up): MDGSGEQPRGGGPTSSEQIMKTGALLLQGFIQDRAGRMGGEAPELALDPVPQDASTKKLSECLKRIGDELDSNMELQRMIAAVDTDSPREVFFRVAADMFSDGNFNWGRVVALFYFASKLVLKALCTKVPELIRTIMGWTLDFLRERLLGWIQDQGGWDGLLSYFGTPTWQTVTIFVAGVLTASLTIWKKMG
UniProt P31645, sequence (whole entry, looked up): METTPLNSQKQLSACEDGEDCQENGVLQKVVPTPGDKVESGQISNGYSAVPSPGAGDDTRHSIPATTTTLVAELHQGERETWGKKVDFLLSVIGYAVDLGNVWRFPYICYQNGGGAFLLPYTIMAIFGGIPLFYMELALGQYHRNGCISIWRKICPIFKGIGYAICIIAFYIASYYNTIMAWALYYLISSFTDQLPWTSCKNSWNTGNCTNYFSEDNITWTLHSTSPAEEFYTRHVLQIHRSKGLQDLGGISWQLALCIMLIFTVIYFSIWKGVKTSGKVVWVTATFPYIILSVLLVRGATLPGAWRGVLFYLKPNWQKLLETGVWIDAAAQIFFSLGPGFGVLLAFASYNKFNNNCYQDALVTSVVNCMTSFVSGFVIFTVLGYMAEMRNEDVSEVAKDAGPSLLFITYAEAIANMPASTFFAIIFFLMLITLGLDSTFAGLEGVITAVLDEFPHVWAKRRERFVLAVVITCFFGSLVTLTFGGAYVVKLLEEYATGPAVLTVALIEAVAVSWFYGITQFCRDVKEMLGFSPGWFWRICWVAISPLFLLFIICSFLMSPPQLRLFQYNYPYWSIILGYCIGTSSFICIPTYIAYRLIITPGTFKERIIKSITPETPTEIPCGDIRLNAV
UniProt P33533, sequence (whole entry, looked up): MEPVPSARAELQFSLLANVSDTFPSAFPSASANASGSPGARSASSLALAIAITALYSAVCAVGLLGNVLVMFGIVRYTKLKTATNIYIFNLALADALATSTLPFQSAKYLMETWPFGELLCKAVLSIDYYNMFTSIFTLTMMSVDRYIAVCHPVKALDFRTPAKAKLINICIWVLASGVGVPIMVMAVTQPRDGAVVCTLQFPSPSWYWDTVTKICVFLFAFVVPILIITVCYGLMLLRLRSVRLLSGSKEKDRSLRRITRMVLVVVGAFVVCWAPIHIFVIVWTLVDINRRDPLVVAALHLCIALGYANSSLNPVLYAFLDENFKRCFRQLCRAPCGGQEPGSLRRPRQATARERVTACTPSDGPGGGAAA
UniProt P18505, sequence (whole entry, looked up): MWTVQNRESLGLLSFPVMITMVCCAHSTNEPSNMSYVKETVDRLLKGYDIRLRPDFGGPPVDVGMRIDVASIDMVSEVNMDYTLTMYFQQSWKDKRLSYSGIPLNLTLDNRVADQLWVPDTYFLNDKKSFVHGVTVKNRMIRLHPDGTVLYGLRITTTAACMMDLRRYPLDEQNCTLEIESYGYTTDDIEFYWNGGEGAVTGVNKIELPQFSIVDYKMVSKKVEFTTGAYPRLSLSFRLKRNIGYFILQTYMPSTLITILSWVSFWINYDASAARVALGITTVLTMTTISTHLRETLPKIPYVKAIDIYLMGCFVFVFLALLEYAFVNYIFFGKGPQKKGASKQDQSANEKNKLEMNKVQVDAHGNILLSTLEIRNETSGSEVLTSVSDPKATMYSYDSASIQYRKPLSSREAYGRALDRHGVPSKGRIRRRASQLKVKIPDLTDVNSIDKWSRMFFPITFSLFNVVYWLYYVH
UniProt Q923Y8, sequence (whole entry, unmodified, looked up): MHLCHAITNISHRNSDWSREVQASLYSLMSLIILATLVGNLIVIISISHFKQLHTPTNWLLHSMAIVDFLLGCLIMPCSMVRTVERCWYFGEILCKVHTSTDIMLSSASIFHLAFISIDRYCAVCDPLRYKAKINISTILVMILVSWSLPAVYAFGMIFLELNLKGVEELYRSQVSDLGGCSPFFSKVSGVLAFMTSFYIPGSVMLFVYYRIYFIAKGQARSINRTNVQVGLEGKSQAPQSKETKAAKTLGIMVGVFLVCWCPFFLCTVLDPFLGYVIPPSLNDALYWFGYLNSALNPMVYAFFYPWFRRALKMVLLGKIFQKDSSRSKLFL
UniProt P47870, sequence (whole entry, looked up): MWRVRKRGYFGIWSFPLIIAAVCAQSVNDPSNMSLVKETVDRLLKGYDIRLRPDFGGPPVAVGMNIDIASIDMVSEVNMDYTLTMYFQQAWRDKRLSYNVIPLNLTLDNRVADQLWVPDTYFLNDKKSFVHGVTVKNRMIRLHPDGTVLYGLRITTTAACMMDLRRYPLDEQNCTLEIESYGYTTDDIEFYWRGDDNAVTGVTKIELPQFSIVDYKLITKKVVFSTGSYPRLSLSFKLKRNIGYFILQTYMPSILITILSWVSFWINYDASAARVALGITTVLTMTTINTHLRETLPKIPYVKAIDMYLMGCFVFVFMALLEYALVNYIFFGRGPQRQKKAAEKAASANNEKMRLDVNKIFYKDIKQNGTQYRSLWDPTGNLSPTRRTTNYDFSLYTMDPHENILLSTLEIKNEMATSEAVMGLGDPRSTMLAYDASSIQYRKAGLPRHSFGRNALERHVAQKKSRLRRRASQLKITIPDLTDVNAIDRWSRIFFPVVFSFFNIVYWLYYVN

CCOC(=O)c1cncn1[C@H](C)c1cccc(OC(C)C)c1 — EC50 (GABA-A receptor; alpha-1/beta-3/gamma-2; potentiation of GABA current, positive allosteric modulator, two-electrode voltage clamp; Xenopus oocytes; together with: GABA EC5): 38 µM
CNC(C)C(=O)c1ccccc1 (stereo not drawn) — EC50 (SLC6A4 (Homo sapiens, UniProt P31645); [3H]5-HT release, releaser; HEK293 expressing target): 54 ± 17 µM
CC(=O)[O][Hg][c]1ccccc1 — EC50 (BAX (Homo sapiens, UniProt Q07812); liposome permeabilization; together with: 100 nM BAX): 0.2 µM
CCOC(=O)c1cncn1C(C)c1cccc2ccccc12 (stereo not drawn) — EC50 (GABA-A receptor; alpha-1/beta-3/gamma-2; potentiation of GABA current, positive allosteric modulator, two-electrode voltage clamp; Xenopus oocytes; together with: GABA EC5): 53 µM
COC(=O)[C@H](C)COC(=O)c1cncn1[C@H](C)c1ccccc1 — EC50 (GABRA1/GABRB3 L291T with gamma-2 subunit; ion current, agonist, two-electrode voltage clamp; Xenopus oocytes; baseline: 100 µM GABA): 35 ± 12 µM
CCN(CC)CCc1c[nH]c2ccc(OC)cc12 — EC50 (HTR2A; β-arrestin recruitment, agonist): 1.06 µM
CC(=O)[C@H]1CC[C@H]2[C@@H]3CC[C@H]4C[C@](C)(O)CC[C@]4(C)[C@H]3CC[C@]12C — EC50 (GABA A receptor alpha-1/beta-1/gamma-2 (Homo sapiens, UniProt P14867+P18505+P18507); GABA current potentiation, positive modulator, two-electrode voltage clamp; Xenopus laevis oocytes; 30 s preincubation, together with: GABA EC10): 0.13 ± 0.04 µM
COC(=O)COC(=O)c1cncn1[C@H](C)c1ccccc1 — EC50 (GABRA1/GABRB3 L291T with gamma-2 subunit; ion current, agonist, two-electrode voltage clamp; Xenopus oocytes; baseline: 100 µM GABA): 38 ± 2 µM
CN1C(=O)CN=C(c2ccccc2)c2cc([N+](=O)[O-])ccc21 — EC50 (Androgen receptor (AR, Homo sapiens, UniProt P10275); human cells; concentration not given): 4.4 µM
COC(=O)[C@@H](C)OC(=O)c1cncn1[C@H](C)c1ccccc1 — EC50 (GABRA1/GABRB3 L291T with gamma-2 subunit; ion current, agonist, two-electrode voltage clamp; Xenopus oocytes; baseline: 100 µM GABA): 8.2 ± 0.9 µM
COc1ccc2[nH]cc(CCNC(C)C)c2c1 — EC50 (HTR2A; β-arrestin recruitment, agonist): 1.07 µM
CCCCC/C=C\C/C=C\C/C=C\C/C=C\CCCC(=O)NCCc1ccc(O)c(O)c1 — EC50 (Sterol carrier protein 2; NBDS displacement, fluorescent probe displacement; 50% of maximum displacement, together with: NBDS 500 nM): 2.54 ± 0.05 µM
CC(=O)[C@H]1CC[C@H]2[C@@H]3CC[C@H]4C[C@H](O)CC[C@]4(C)[C@H]3CC[C@]12C — EC50 (GABA-A receptor; alpha-1/beta-2/gamma-2 (Homo sapiens, UniProt P14867+P18507+P47870); GABA current potentiation, positive modulator, two-electrode voltage clamp; Xenopus laevis oocytes; 30 s preincubation, together with: GABA EC10): 0.11 ± 0.01 µM
CN1CC[C@]2(c3cccc(O)c3)Cc3nc4ccccc4cc3C[C@H]2C1 — EC50 (Oprd1 (Rattus norvegicus, UniProt P33533); agonist; ethanol-trained rat, rat cerebral cortex membranes; together with: yohimbine 2 mg/kg intraperitoneal): 21 ± 3.9 µM
CN[C@@](C)(C[18F])C(=O)O — tracer uptake (mouse, muscle; 1 h, tumour-bearing): 1.4 %ID/g
CCCCC/C=C\C/C=C\C/C=C\C/C=C\CCCC(=O)NCCO — EC50 (Sterol carrier protein 2; NBDS displacement, fluorescent probe displacement; 50% of maximum displacement, together with: NBDS 500 nM): 1.54 ± 0.1 µM
COC(=O)CCOC(=O)c1cncn1[C@H](C)c1ccccc1 — EC50 (GABRA1/GABRB3 L291T with gamma-2 subunit; ion current, agonist, two-electrode voltage clamp; Xenopus oocytes; baseline: 100 µM GABA): 20 ± 2 µM
NCCc1ccc(Oc2ccc(O)cc2)c(I)c1 — EC50 (Taar1 (Mus musculus, UniProt Q923Y8, Y153F); cAMP accumulation, agonist, cell-based; TM4 mutant): 0.067 ± 0.017 µM

For quick reference, copied from above:
COc1ccc2[nH]cc(CCNC(C)C)c2c1 — EC50 (HTR2A; β-arrestin recruitment, agonist): 1.07 µM
CCCCC/C=C\C/C=C\C/C=C\C/C=C\CCCC(=O)NCCc1ccc(O)c(O)c1 — EC50 (Sterol carrier protein 2; NBDS displacement, fluorescent probe displacement; 50% of maximum displacement, together with: NBDS 500 nM): 2.54 ± 0.05 µM
